{"data": "Assay results of several laboratories", "note": "A part holds a random share of what one study measured. Values joined by “and” are separate records of one study, mostly repeats; a detail may differ.", "chain of UniProt P30291 (whole entry, looked up)": "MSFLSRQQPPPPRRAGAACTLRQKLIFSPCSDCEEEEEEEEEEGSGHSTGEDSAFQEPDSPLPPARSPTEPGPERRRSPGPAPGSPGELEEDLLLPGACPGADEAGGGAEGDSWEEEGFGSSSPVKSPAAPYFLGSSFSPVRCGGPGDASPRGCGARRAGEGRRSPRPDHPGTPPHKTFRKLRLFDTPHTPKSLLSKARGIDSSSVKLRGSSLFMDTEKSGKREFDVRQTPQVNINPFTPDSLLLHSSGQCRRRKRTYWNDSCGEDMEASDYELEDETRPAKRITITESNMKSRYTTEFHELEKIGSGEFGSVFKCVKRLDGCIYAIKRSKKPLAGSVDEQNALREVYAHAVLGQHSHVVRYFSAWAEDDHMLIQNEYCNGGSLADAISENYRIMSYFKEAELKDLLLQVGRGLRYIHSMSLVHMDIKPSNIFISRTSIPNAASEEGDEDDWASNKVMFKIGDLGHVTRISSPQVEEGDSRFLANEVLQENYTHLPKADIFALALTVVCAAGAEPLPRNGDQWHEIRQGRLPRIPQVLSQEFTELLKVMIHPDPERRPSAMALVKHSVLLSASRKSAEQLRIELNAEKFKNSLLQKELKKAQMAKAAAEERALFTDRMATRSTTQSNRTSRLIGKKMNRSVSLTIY", "chain of UniProt P68400 (whole entry, looked up)": "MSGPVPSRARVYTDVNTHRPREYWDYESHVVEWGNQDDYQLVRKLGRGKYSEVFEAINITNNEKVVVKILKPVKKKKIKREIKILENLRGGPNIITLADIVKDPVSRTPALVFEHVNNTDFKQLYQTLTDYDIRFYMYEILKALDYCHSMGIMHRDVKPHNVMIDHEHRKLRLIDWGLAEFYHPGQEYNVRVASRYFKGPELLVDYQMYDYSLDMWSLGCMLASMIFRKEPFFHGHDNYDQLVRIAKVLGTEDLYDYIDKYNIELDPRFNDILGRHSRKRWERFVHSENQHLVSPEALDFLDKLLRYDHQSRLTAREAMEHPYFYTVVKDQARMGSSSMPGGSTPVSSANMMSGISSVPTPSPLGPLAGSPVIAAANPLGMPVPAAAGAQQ", "chain of UniProt Q6ZN16 (whole entry, looked up)": "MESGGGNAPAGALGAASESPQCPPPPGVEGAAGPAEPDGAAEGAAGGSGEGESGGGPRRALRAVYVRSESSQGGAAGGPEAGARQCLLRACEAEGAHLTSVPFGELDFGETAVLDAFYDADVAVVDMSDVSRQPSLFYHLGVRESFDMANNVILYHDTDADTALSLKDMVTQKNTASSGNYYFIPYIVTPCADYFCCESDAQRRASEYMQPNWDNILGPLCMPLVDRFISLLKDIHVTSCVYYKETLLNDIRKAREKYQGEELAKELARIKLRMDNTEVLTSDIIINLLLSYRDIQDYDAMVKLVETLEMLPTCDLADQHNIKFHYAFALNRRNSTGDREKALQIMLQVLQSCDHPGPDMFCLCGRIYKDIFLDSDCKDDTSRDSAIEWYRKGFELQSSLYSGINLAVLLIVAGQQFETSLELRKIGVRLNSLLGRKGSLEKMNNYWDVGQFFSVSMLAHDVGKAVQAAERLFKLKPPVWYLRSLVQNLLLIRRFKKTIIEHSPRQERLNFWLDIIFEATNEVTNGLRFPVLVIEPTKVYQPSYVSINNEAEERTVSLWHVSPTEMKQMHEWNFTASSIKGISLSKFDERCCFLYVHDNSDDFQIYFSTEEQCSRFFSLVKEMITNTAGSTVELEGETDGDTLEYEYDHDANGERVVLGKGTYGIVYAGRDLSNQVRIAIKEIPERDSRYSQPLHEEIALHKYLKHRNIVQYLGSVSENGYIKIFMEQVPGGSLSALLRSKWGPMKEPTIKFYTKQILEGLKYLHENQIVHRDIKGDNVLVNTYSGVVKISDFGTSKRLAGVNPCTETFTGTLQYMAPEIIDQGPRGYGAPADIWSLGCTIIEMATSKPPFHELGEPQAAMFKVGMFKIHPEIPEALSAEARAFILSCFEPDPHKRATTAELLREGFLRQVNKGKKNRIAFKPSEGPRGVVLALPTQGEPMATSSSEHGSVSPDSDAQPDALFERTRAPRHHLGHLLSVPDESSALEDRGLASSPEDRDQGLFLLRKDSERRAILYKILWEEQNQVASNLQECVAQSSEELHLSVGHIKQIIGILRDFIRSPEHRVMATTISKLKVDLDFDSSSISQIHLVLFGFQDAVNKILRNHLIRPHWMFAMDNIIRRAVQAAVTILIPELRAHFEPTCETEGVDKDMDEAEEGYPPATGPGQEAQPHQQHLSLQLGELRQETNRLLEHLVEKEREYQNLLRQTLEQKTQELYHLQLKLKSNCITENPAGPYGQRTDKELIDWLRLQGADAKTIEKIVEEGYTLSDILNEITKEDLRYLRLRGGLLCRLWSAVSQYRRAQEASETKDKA", "chain of UniProt Q96RJ0 (whole entry, looked up)": "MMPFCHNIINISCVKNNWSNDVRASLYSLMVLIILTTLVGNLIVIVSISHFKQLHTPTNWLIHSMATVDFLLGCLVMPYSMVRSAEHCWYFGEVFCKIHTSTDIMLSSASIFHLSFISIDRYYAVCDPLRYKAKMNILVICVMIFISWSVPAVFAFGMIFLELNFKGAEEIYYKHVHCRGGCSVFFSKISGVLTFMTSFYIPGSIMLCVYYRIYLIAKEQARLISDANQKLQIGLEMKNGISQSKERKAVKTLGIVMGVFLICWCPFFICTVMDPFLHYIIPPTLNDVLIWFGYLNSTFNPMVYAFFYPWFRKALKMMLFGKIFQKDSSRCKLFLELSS", "chain of UniProt Q04759 (whole entry, looked up)": "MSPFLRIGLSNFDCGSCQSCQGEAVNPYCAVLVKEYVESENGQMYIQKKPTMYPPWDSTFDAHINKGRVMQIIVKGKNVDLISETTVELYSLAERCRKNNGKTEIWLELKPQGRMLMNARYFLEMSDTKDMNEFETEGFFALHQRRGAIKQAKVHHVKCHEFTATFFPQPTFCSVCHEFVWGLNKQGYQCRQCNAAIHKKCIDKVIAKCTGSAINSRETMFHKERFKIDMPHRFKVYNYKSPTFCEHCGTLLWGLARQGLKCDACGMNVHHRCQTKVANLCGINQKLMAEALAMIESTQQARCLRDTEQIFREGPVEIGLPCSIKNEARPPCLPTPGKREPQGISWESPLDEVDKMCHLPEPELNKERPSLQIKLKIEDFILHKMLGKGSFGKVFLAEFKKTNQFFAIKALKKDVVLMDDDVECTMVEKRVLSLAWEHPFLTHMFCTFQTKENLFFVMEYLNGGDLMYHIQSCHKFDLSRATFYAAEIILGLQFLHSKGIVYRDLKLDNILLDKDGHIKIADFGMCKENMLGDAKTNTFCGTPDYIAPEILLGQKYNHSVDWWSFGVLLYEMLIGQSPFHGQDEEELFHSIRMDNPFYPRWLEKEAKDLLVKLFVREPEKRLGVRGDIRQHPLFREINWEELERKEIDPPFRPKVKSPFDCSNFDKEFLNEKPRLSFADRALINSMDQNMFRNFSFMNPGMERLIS", "chain of UniProt Q8N752 (whole entry, looked up)": "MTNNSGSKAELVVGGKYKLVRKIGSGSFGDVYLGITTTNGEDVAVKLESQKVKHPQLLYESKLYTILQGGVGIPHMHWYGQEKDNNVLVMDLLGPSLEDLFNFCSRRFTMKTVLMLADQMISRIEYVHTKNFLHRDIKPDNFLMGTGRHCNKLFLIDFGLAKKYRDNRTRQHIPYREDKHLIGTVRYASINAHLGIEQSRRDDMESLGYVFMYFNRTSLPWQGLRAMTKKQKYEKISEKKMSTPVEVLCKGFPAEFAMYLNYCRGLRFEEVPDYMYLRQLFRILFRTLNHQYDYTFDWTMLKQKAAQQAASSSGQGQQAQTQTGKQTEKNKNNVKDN"}
{"data": "Sample 1", "Compound": "CC(C)n1cnc(-c2ccc(F)cc2)c1-c1ncc(C(=O)Nc2ccc(N3CCN(C)CC3)cc2)[nH]1", "method": "Phase 2a trial", "host": "idiopathic pulmonary fibrosis patients"}
{"item": "respiratory tract infection", "dose": "dose not given", "notes": "grade 4 maximum intensity, all arms", "patients with adverse events [%]": 0}
{"item": "reticulocyte count increased", "dose": "30 mg once daily", "notes": "grade 4 maximum intensity", "patients with adverse events [%]": 0}
{"item": "muscular weakness", "dose": "60 mg once daily", "notes": "grade 1 maximum intensity", "patients with adverse events [%]": 0}
{"item": "infections and infestations", "dose": "60 mg once daily", "notes": "grade 4 maximum intensity", "patients with adverse events [%]": 0}
{"data": "Sample 2", "SMILES": "C[C@H]1CC[C@H](n2c3cnccc3c3cnc(Nc4ccc5c(n4)CCN(C(=O)CO)C5)nc32)CC1", "observed": "cell-free assay", "concentration": "1 µM"}
{"target": "Casein kinase II subunit alpha (CSNK2A1, Homo sapiens, UniProt P68400)", "remaining signal [%]": 1}
{"target": "Protein kinase C theta type (PRKCQ, Homo sapiens, UniProt Q04759)", "remaining signal [%]": 86}
{"target": "Receptor-type tyrosine-protein kinase FLT3 (FLT3, Homo sapiens, UniProt P36888, K663Q)", "remaining signal [%]": 1.2}
{"data": "Sample 3", "cell line": "mouse MPNST tumor cells", "method": "high-content immunofluorescence imaging", "item": "nuclear SOX9", "concentration": "10 µM", "time": "12 h", "notes": "mean of 2 replicates", "relative to": "DMSO control", "reading": "higher = more nuclear SOX9"}
{"SMILES": "CCOC(Cn1nc(-c2ccc3oc(N)nc3c2)c2c(N)ncnc21)OCC", "nuclear SOX9 intensity": "121 % of DMSO"}
{"SMILES": "CCCCCCCCc1ccc(-c2ccc(C(=O)O)cc2)cc1", "nuclear SOX9 intensity": "106 % of DMSO"}
{"SMILES": "NNC(=O)c1ccncc1", "nuclear SOX9 intensity": "94.5 % of DMSO and 98.2 % of DMSO"}
{"SMILES": "O=C(NCCN1CCOCC1)c1ccc(Cl)cc1", "nuclear SOX9 intensity": "99.8 % of DMSO and 100 % of DMSO"}
{"data": "Sample 4", "Structure (SMILES)": "CS(=O)(=O)NCC[C@H](NC(=O)c1cncc2c1cnn2-c1ccc(F)cc1)c1ccnc(S(C)(=O)=O)c1", "observed": "cell-free assay", "method": "competition with immobilised ligand", "concentration": "1 µM"}
{"target": "Mitogen-activated protein kinase kinase kinase 15 (MAP3K15, Homo sapiens, UniProt Q6ZN16)", "remaining binding [%]": 100}
{"target": "Wee1-like protein kinase (WEE1, Homo sapiens, UniProt P30291)", "remaining binding [%]": 99}
{"target": "Casein kinase I isoform alpha-like (CSNK1A1L, Homo sapiens, UniProt Q8N752)", "remaining binding [%]": 94}
{"data": "Sample 5", "target": "Serine/threonine-protein kinase B-raf (BRAF, Homo sapiens, UniProt P15056)", "observed": "enzyme activity", "action": "inhibitor", "concentration": "0.5 µM", "relative to": "control", "chain of UniProt P15056 (whole entry, looked up)": "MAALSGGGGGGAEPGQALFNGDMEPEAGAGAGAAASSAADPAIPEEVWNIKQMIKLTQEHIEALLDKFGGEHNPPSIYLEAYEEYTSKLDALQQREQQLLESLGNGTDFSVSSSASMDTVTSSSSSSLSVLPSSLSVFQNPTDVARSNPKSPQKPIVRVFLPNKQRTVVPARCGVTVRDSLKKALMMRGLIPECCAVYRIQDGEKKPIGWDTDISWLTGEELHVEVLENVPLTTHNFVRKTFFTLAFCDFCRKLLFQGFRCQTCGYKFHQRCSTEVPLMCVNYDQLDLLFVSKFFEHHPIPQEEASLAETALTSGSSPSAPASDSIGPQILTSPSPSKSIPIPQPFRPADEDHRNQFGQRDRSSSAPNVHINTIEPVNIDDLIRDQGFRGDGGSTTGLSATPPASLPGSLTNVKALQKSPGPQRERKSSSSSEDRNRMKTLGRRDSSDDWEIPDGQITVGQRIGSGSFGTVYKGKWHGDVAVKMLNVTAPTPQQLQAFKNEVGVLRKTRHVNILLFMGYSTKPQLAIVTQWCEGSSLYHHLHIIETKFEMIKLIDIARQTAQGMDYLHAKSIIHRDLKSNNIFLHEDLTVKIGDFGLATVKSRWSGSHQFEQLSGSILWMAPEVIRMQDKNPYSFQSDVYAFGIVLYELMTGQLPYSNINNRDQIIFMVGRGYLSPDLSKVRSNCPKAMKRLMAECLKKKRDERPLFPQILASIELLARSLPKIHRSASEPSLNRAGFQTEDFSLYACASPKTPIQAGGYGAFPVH"}
{"SMILES": "COc1cc2ncnc(Nc3ccc(F)c(Cl)c3)c2cc1OCCCN1CCOCC1", "remaining activity": "95.8%"}
{"SMILES": "Nc1ncnc2n[nH]c(Nc3ccc(F)cc3)c12", "remaining activity": "91.7%"}
{"SMILES": "CC(C)[C@H](CO)Nc1nc(Nc2cc(N)cc(Cl)c2)c2ncn(C(C)C)c2n1", "remaining activity": "97.5%"}
{"SMILES": "NCCNc1ncc(C(N)=O)c(Nc2cccc(C(F)(F)F)c2)n1", "remaining activity": "93.8%"}
{"SMILES": "C#Cc1cccc(Nc2ncnc3cc(OCCOC)c(OCCOC)cc23)c1", "remaining activity": "93.5%"}
{"SMILES": "O=C(O)c1ccc2c3c1cccc3c(=O)n1c3ccccc3nc21", "remaining activity": "95.1%"}
{"SMILES": "CCOC(=O)c1c(C)[nH]c(/C=C2\\C(=O)Nc3ccccc32)c1C", "remaining activity": "96.7%"}
{"SMILES": "Oc1ccc(-c2nc(-c3ccncc3)c(-c3ccc(F)cc3)[nH]2)cc1", "remaining activity": "60.5%"}
{"SMILES": "O=C(Nc1cccc(Nc2cc(Nc3cccc(C(F)(F)F)c3)ncn2)c1)C1CC1", "remaining activity": "96.8%"}
{"SMILES": "N#CC(C#N)=C(N)/C(C#N)=C/c1ccc(O)cc1", "remaining activity": "90.1%"}
{"SMILES": "Nc1[nH]nc2nc3ccccc3nc12", "remaining activity": "102%"}
{"SMILES": "O=S(=O)(c1cccc2cnccc12)N1CCCNCC1", "remaining activity": "97.7%"}
{"SMILES": "Cc1cccc(-c2[nH]c(C(C)(C)C)nc2-c2ccc3c(c2)OCO3)n1", "remaining activity": "111%"}
{"SMILES": "Cn1c2ccccc2c2c3c(c4c5ccccc5n(CCC#N)c4c21)CNC3=O", "remaining activity": "110%"}
{"SMILES": "COc1ccc(OC)c2c(=S)c3ccccc3[nH]c12", "remaining activity": "88.5%"}
{"SMILES": "COc1ccc(CNC(=O)Nc2ncc([N+](=O)[O-])s2)cc1", "remaining activity": "93.4%"}
{"SMILES": "CN(C)c1ccc(C=C2C(=O)Nc3ccccc32)cc1", "remaining activity": "101%"}
{"SMILES": "Cn1sc(=O)n(Cc2ccccc2)c1=O", "remaining activity": "98.1%"}
{"SMILES": "O=C(CCCc1ccc(-c2ccccc2F)cc1)Nc1ccc(O)cc1", "remaining activity": "93%"}
{"SMILES": "OCC(O)CCON=C1C(c2c(O)[nH]c3ccccc23)=Nc2ccccc21 (centres unmarked)", "remaining activity": "103%"}
{"SMILES": "COc1cc2ncnc(Nc3ccc(Oc4ccccc4)cc3)c2cc1OC", "remaining activity": "79.6%"}
{"data": "Sample 6", "host": "human", "matrix": "microsomes or S9", "concentration": "2 µM", "time": "0.5 h"}
{"Structure (SMILES)": "COc1ccc([N+](=O)[O-])cc1C(=O)Nc1cc(C(F)(F)F)cc(C(F)(F)F)c1", "remaining compound": "81.3%"}
{"Structure (SMILES)": "Nc1nc(N2CCN(c3ccccc3Cl)CC2)nc2ccccc12", "remaining compound": "4.27%"}
{"Structure (SMILES)": "COC(=O)Cn1c(=O)cc(C)c2c(OC)ccc(OC)c21", "remaining compound": "0.077%"}
{"data": "Sample 7", "cell line": "A-375", "concentration": "100 µM", "time": "18 h"}
{"Compound": "CCOC(=O)[C@H](CCc1ccccc1)N[C@@H](C)C(=O)N1Cc2ccccc2C[C@H]1C(=O)O", "viability [%]": 87.6}
{"Compound": "CCC[C@@H]1C[C@@H](C(=O)N[C@@H]([C@H]2O[C@H](SC)[C@H](OP(=O)(O)O)[C@@H](O)[C@H]2O)[C@H](C)Cl)N(C)C1", "viability [%]": 99.5}
{"Compound": "O=C(O)COC(=O)Cc1ccccc1Nc1c(Cl)cccc1Cl", "viability [%]": 92.1}
{"Compound": "CCCCC(=O)N(Cc1ccc(-c2ccccc2-c2nnn[nH]2)cc1)[C@H](C(=O)O)C(C)C", "viability [%]": 105}
{"data": "Mixed results"}
{"Compound": "N=C(N)NC(=O)c1cnn(-c2cccc3ncccc23)c1C1CC1", "target or system": "Trace amine-associated receptor 1 (TAAR1, Homo sapiens, UniProt Q96RJ0)", "assay": "β-arrestin recruitment, agonist, PRESTO-Tango", "conditions": "10 µM", "how to read": "relative to: untreated", "quantity": "fold over basal", "value": "1.08 fold"}
{"Compound": "CC(=O)N[C@@H](Cc1c[nH]c2ccccc12)C(=O)N[C@@H](CCC(=O)C=[N+]=[N-])C(=O)OC(C)C", "assay": "UPLC-MS/MS", "test system": "EL4 tumor, C57BL/6 CES1-/- mice, tumor", "conditions": "subcutaneous, 0.3 mg/kg DON equivalent daily, 5 days", "how to read": "higher = more metabolite", "quantity": "salicylate level", "value": "403000 a.u. and 535000 a.u. and 596000 a.u. and 711000 a.u. and 576000 a.u. and 545000 a.u."}
{"note": "A few entries again (sample 6):"}
{"Structure (SMILES)": "COC(=O)Cn1c(=O)cc(C)c2c(OC)ccc(OC)c21", "remaining compound": "0.077%"}
{"Structure (SMILES)": "COc1ccc([N+](=O)[O-])cc1C(=O)Nc1cc(C(F)(F)F)cc(C(F)(F)F)c1", "remaining compound": "81.3%"}
{"Structure (SMILES)": "Nc1nc(N2CCN(c3ccccc3Cl)CC2)nc2ccccc12", "remaining compound": "4.27%"}
